Measured values from different studies.
Parts stem from different laboratories: compare values within a part only.

Study 1
Target: Centromere-binding protein 1, full length, N-terminal tag (CBF1, Saccharomyces cerevisiae, UniProt P17106, residues 1-351)
UniProt P17106, sequence (whole entry, looked up): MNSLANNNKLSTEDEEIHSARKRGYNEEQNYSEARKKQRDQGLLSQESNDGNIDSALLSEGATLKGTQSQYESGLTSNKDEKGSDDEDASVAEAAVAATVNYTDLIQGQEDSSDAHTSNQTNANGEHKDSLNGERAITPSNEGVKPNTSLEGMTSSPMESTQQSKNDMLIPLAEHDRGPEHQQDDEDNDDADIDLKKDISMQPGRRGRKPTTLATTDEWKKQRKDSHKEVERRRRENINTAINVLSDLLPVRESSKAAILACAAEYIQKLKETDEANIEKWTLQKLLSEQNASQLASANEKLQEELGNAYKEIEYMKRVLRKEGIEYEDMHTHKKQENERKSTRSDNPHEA
Method: protein-binding microarray
Molecule type: double-stranded DNA, one strand shown
Matrix: in vitro
Tested at: 0.8 µM
Notes: whole 60-bp probe, no competitor
Reading: higher = stronger binding
Oligonucleotide	fluorescence intensity
GAAGACCTGAGCAGGTGACTTAGGTGGAGGAGCTAGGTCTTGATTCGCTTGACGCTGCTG	3770 a.u.
TGTACGAAGCTATGCCACGTAAATATAGTAGTTAGGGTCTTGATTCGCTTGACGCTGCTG	541 a.u.
GAACATTTACGCTTTCACGCAACTTTATTATATTAGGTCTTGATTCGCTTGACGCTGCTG	572 a.u.
CTAAAAAAATGAATGAACGTGTATCATCGTTTATTCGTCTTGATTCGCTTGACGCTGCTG	526 a.u.
GAAAACTAGTCACCACAGGTGAGGCAATTACCGTAGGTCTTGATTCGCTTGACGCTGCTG	495 a.u.
TGTACGAAGCTATATCACCAGGGTATAGTAGTTAGGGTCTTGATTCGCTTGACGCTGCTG	508 a.u.
CTAAATTAATACATAAACGTGTACAAGTTATATTTCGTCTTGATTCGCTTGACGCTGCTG	589 a.u.
CTAAAGAGCCGTACGTGAGTGAGAGGAGATCCGTTCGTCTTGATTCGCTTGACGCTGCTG	495 a.u.
CCTAACTACTATAGGCACGCAAGATAGCTTCGTACAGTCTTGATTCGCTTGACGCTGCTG	522 a.u.
CTATTGTCACAGTGTCACATCAGCGGCAACTCATTCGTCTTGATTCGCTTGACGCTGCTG	614 a.u.
GAAAGTAGCTCGATTCACGTTCTATTAGCGGCATAGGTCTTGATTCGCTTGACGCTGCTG	560 a.u.
GAATAATGAATCTGTGACCTTTCTTTGCTATAGTAGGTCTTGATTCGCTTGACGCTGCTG	584 a.u.
GAACGTTATTAGTTTGAACTCACGTGTTGCTGCTAGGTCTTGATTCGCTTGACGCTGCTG	4890 a.u.
CTAAAGGCAGAGAATCACGATTGATAAAGATCATTCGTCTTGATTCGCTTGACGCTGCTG	528 a.u.
GAACATCTCGTAGATCACCAGGGCACACAACAATAGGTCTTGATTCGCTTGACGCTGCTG	601 a.u.
GAATAATCATTATGTCACCTTCCTATGCCGTATTAGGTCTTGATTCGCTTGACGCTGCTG	568 a.u.
GAATTACTTTTACGCCACGAGTGATCTAAAAATTAGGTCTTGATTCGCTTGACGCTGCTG	611 a.u.
CTACATTCGAACTAAAACATCAGCCCCAAAAATTTCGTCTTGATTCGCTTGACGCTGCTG	510 a.u.
CTAGAACACTACGCCAACGTGATTGGCAATTGTTTCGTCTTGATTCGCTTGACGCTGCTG	1380 a.u.
GAAAATATATAACATGACGTGAGTGAAGAATTATAGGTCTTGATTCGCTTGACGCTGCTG	707 a.u.
TGTACGAAGCTATGTCACAATGTTATAGTAGTTAGGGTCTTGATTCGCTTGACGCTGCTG	572 a.u.
GAATTTTCCGAAAGTCATGACACAAGGGAAGGATAGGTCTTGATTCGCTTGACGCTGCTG	643 a.u.

Study 2
Target: RNA binding protein fox-1 homolog 2, RRM domain, GST-SBP tag (RBFOX2, Homo sapiens, UniProt O43251-10, residues 100-194)
Method: RNA Bind-n-Seq
Molecule type: RNA
Matrix: in vitro
Tested at: 365 nM
Notes: natural RNA segment, single round, ends assumed
Reference: no-protein control
Reading: higher = stronger binding
Target sequence (chain): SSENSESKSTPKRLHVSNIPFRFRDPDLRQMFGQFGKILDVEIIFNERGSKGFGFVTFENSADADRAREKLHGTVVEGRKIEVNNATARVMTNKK
Oligonucleotide	RBNS enrichment (R)
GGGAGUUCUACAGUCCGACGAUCUCCCUCCCUCUCUUGCCAGCACAUCCCUUAGUCCCCUUGAGACAAGUGGACCUAAGUGGCCGAGAGAGGAGGGUCUGGCCUCCUUGGCCCCCCAUCUUGCUUUCCCAGGGUGGAAUUCUCGGGUGCCAA	0.344
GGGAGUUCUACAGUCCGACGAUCAGUGUUUAAUUUUGUUGUCCUUCUUAAUGUUCUCAGUCAAAUAAAUGGGUGGUUUCAUCUGUUUGGGACAUGUGGGUGUCUUCUUUUUGGGAAGCACAGUCUUUGCAACCUGGAAUUCUCGGGUGCCAA	0.372
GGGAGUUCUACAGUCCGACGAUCCGGGGUUGUAAGGGAGUCUCAGAACCUCACUGAAUCCUUCACUCCAGUUAAUGGCACUGCUCACUUCCUGCCUCUGCUGCCACCAUCACUGUGUGAAGCUUUCAAGAGCUUGGAAUUCUCGGGUGCCAA	0.234
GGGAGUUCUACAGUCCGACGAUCUCCCGCUCAUAUGAGAGAGCAGGUGUCUGCCCUUGAGAGCUGGUGAGCCGCGUCAUCUGUUUGCGCUGGGCAAGGAGCUGCACCGCUGCGUUGACCUGCCUUGUCUUACGUGGAAUUCUCGGGUGCCAA	0.531
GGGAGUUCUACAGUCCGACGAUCUGUGAACACAAAGUCUGACUUGAAGAUUCUCUGCAAUGAAGAGAAUUCAUUCAUUCACUCUGCUCAAGACUCCACUGGGCCAAGAGAUGGAAGAACAAACAAAAAGGACUUGGAAUUCUCGGGUGCCAA	0.283
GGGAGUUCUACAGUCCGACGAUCUAACCCCCAGCCCCUCAAAAAAAUAAGGCCUCCAGGUAUCAAGAUCUCAUAUUAGGAUUUUCUGUCCUUAAUUUUUUGAGCAAAAUCUGGAAAAUGUGAAAGCAUAUUUAUGGAAUUCUCGGGUGCCAA	0.4
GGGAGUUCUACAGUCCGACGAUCUAUAAUGGAUCAUGCAUAAUUUCUCAGGAGAAUAAAAUGAGAAUUCAUAUAUACGUUCAUCUUUCAAGUCAGAGCAAUGAGUUGGGAAAAGAGGUGGCAUUUCUGAUCGGUGGAAUUCUCGGGUGCCAA	0.506
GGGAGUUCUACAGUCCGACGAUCUCUAGAAUGACUUGGUGUCCUGAUGCACUUCUCACCAGAGGCUGCCUAGCAGCAUGUGUUAGCCAAAGUCUUCCUCCUUGUUUUGAGAAGACUCCAGGACAGGACAGGCAUGGAAUUCUCGGGUGCCAA	1.32
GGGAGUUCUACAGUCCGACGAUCAUCUUAGCCUGGCCCAGCCUGGGCUGCCUGGACAGGCUCUCCUGGCACAUUCCUGUACCCUUUAAAUGGGAAAGCAGUUAACGGAAGGGCCACAGGGUCAGAUGAGGGCUUGGAAUUCUCGGGUGCCAA	0.284
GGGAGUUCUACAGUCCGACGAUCUCAGCCCUCUCUCUUGUUCCCUUUCUGAGCAUGUGGUCCUUCCCCAGGCUGUGGGACAGCUGCCUUCCCACGAAAGUGUAAAGCAGUAUUAAGAUCAUUACUGCAUGUGCUGGAAUUCUCGGGUGCCAA	5.2
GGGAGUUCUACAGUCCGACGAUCUGUCCCUGGCAAGUGCCUGGUAAAGGACACCGAGGCUGCUGAGCUCUUCCAGCAUGGAGGGUACCAUGGCCCGUAGGAGCCUGGGGUUCCUAGCAAACGGGAGGAAACCAUGGAAUUCUCGGGUGCCAA	1.09
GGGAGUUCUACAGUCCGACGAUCGGUUUUUAUACCCCCACUAAUGCUGUGUAUCUGUCUUUCGUUUGUUAACAUUAUUUGCUUAAUUUCUUUCAACUCACACUUUGGAUAAUACUAUCAAAAACUAAGGCUAAUGGAAUUCUCGGGUGCCAA	0.641

Study 3
Target: Interferon regulatory factor 3, full length, phosphomimetic (IRF3, Homo sapiens, UniProt Q14653, residues 1-427, S386D/S396D/S398D/S402D/T404D/S405D)
Method: protein-binding microarray
Molecule type: double-stranded DNA, one strand shown
Matrix: in vitro
Tested at: 2540 nM top
Notes: 60-bp whole probe
With: salmon DNA 0.4 mg/ml
Reference: random background probes
Reading: higher = stronger binding
All sequences stand within: GCCTAGCAC … GTCTTGATTCGCTTGACGCTGCTG
Construct (chain): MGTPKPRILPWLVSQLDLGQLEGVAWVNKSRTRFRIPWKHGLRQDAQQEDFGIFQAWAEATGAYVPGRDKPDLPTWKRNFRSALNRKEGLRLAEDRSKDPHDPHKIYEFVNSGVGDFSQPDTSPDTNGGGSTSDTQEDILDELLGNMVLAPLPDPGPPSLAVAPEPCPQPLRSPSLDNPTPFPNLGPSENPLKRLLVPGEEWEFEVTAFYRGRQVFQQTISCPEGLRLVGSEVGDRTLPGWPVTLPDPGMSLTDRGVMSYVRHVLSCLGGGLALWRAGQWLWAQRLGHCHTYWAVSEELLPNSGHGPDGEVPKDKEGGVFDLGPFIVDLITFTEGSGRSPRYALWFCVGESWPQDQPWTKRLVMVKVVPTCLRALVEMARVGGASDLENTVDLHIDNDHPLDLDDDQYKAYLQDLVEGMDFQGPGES
Oligonucleotide	fitted relative affinity
AACTCTCTAATTTTGAGACTGTGCTAG	0.459 z-score
TCAGAATTAGGTTTCACACTGTGCTAG	2.39 z-score
GTGGTTCTGCTTCTTAGCGCGTGCTAG	0.601 z-score
GATTTTTTTCATATATATATGTGCTAG	1.29 z-score
TTAGATTTCGGGACCGGATTAGTGCTA	1.49 z-score
TCACCTCTCACGCATCTGACTGTGCTA	0.291 z-score
TTAGGACTGGCACTGGGTTAGTGCTAG	-0.886 z-score
ACAGATGAGGAACCAAGGCCGTGCTAG	-0.262 z-score
AAAAATTAGTGTTTCCCCTAGTGCTAG	1.1 z-score
GAAAATGCCCTTTTGGTGAGGTGCTAG	1.85 z-score
TTGGTTCTCAGCTTGGGGCAGTGCTAG	-0.0041 z-score
TGGATGGTCCTGGTTTCATGGGTGCTA	-0.405 z-score
GACGGTTCCCTTTTCCTGAAGTGCTAG	6.44 z-score
TTGCCAATGCTTCTGGTCTTGTGCTAG	-0.421 z-score
TTAGGTATCGTTCTCGGTTAGTGCTAG	4 z-score
GACGGTTTCGGTTCCGGGACGTGCTAG	10.2 z-score
GACGAACTAAGACTGGAGACGTGCTAG	-0.159 z-score

Study 4
Target: UBE2R2 UBC core domain (UniProt Q712K3)
Method: yeast two-hybrid
Matrix: yeast
Notes: mostly zero background
Reference: not given
Reading: higher = stronger interaction
B1: MDM4 RING domain (UniProt O15151); chain MEDCQNLLKPCSLCEKRPRDGNIIHGRTGHLVTCFHCARRLKKAGASCPICKKEIQLVIKVF
B2: SYTL4 RING domain (UniProt Q96C24); chain RGSQHYSDRTCARCQESLGRLSPKTNTCRGCNHLVCRDCRIQESNGTWRCKVCAKEIELKKAT
B3: UBOX5 RING domain (UniProt O94941); chain EQPGSILGPECASCKRVFSPYFKKEPVYQLPCGHLLCRPCLGEKQRSLPMTCTACQRPVASQDVLR
B4: DZIP3 RING domain (UniProt Q86Y13); chain PDEEEEEEEPCVICHENLSPENLSVLPCAHKFHAQCIRPWLMQQGTCPTCRLHVLLPEEFP
Target sequence (chain): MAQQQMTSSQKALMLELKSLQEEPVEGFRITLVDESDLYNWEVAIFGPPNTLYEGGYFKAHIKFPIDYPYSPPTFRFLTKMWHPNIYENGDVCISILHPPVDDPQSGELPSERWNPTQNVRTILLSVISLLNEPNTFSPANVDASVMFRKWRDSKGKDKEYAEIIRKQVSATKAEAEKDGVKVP
Molecule	lacZ reporter activity
PEDRESLKSACVVCLSSFKSCVFLECGHVCSCTECYRALPEPKKCPICRQAITRVIPLY (MUL1 RING domain (UniProt Q969V5))	0
B1 (MDM4 RING domain)	0
B2 (SYTL4 RING domain)	0
B3 (UBOX5 RING domain)	0
GSDDEEIPFKCFICRQSFQNPVVTKCRHYFCESCALQHFRTTPRCYVCDQQTNGVFNPA (RNF113A RING domain (UniProt O15541))	0
FDGDVDPDLKCALCHKVLEDPLTTPCGHVFCAGCVLPWVVQEGSCPARCRGRLSAKELN (PDZRN3 RING domain (UniProt Q9UPQ7))	0
B4 (DZIP3 RING domain)	0

A few entries again (study 1):
Oligonucleotide	fluorescence intensity
CTAAAGAGCCGTACGTGAGTGAGAGGAGATCCGTTCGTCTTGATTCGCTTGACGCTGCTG	495 a.u.
CCTAACTACTATAGGCACGCAAGATAGCTTCGTACAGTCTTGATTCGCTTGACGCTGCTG	522 a.u.
CTATTGTCACAGTGTCACATCAGCGGCAACTCATTCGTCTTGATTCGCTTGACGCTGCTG	614 a.u.
GAAAGTAGCTCGATTCACGTTCTATTAGCGGCATAGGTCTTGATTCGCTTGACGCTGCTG	560 a.u.
GAATAATGAATCTGTGACCTTTCTTTGCTATAGTAGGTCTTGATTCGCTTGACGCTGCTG	584 a.u.
GAACGTTATTAGTTTGAACTCACGTGTTGCTGCTAGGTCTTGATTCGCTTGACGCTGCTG	4890 a.u.
CTAAAGGCAGAGAATCACGATTGATAAAGATCATTCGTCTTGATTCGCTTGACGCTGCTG	528 a.u.
